# Assay results collected from several papers.
# Compare with care: the assays were run in different laboratories.
# UCHL1: Ubiquitin carboxyl-terminal hydrolase isozyme L1 (UCHL1, Homo sapiens, UniProt P09936)
# Sequence of UniProt P09936 (whole entry, looked up): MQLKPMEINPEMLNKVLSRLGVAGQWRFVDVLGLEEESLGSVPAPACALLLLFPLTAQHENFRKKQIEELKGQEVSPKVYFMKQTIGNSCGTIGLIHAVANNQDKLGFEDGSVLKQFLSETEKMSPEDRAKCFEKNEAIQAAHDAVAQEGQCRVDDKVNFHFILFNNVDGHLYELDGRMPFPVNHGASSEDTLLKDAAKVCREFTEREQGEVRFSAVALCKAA
SMILES,tested on,test,test system,conditions,quantity,result
Cc1noc(C)c1-c1cc(C(O)(c2ccccn2)c2ccccn2)c2nc(C3CC3)[nH]c2c1,,,"human male fasted, plasma","oral, 4 mg once daily, cycle 1 day 8",AUC(0-last),4650 ng·h/mL
CO[C@H]1C[C@@H]2CC[C@@H](C)[C@@](O)(O2)C(=O)C(=O)N2CCCC[C@H]2C(=O)O[C@H]([C@H](C)C[C@@H]2CC[C@@H](OC(=O)NCCOCCOCCOCCOCCOCCOCCOCCOCCC(=O)N3CCc4cc(Cn5nc(-c6ccc7oc(N)nc7c6)c6c(N)ncnc65)ccc4C3)[C@H](OC)C2)C[C@@H](O)[C@H](C)/C=C(\C)[C@@H](O)[C@@H](OC)C(=O)[C@H](C)C[C@H](C)/C=C/C=C/C=C/1C,,,"human patients, plasma","intravenous, 10 mg, cycle 1 day 15, 1 h infusion",AUC(0-last),0.391 µM·h
CCOc1c([C@H](C)n2nc(C)c3c(N)ncnc32)cc(Cl)c(F)c1[C@@H]1CNC(=O)C1,,,human patients,"oral, 15 mg once daily, cycle 1 day 15, monotherapy, geometric mean",AUC(0-last),9.92 µM·h
CN(C(=O)C(C)(C)c1cc(C(F)(F)F)cc(C(F)(F)F)c1)c1cnc(N2C[C@H]3COCCN3C[C@H]2CO)cc1-c1ccc(F)cc1[14CH3],,LC-MS/MS,"human, plasma","oral, 120 mg",AUC(0-last),6540 ng·h/mL
C[C@@H](Oc1ccc(S(C)(=O)=O)cc1C(=O)N1C[C@@H]2C[C@]2(c2cc(C(F)(F)F)on2)C1)C(F)(F)F,,,"healthy human volunteers, fasted, plasma","oral, 10 mg single, adjusted geometric mean",AUC(0-last),4.03 µM·h
CC(Cl)C(=O)N1CCn2c(cc3c(Cl)cccc32)C1 (stereo not drawn),UCHL1,"covalent, intact protein LC-MS",,12.5 µM,labelling,15.1%
CN(C)C(=O)c1cc2cnc(Nc3ccc(N4CCNCC4)cn3)nc2n1C1CCCC1,,,"human, end-stage renal disease, plasma","oral, 400 mg, single dose, geometric mean",AUC(0-last),13500 ng·h/mL
N#CCNC(=O)c1ccc(-c2ccnc(Nc3ccc(N4CCOCC4)cc3)n2)cc1,,,"healthy human volunteers, plasma","oral, dose not given, day 12, without rifampin",AUC(0-last),2580 ng·h/mL
C=CC(=O)N(C)CCOc1c(N)ncnc1-c1cc(F)cc(NC(=O)c2ccc(C3CC3)cc2F)c1C,,,"human, fed, whole blood","oral, 60 mg single dose, food effect crossover, adjusted geometric mean",AUC(0-last),224 ng·h/mL
Cn1cc(S(=O)(=O)N2CCOCC2)cc1C(=O)NC(=O)CCl,UCHL1,"covalent, intact protein LC-MS",,12.5 µM,labelling,17.7%
CC(C)n1nc(-c2ccc3oc(N)nc3c2)c2c(N)ncnc21,,,"human, plasma","oral, 2 mg once daily, cycle 1 day 1",AUC(0-last),134 ng·h/mL
C=CC(=O)N1CCC(Oc2cc3c(Nc4ccc(Cl)c(Cl)c4F)ncnc3cc2OC)CC1,,,"human, fasted, plasma","oral, 16 mg, geometric mean",AUC(0-last),482 ng·h/mL
Cc1cc(Nc2cc3ncccc3c(N[C@@H]3C[C@H]4CC[C@@H](C3)N4CCC#N)n2)n[nH]1,,,"human, plasma","100 mg single dose, mean",AUC(0-last),16.6 ng·h/mL
CC(C)NC(=O)COc1cccc(-c2nc(Nc3ccc4[nH]ncc4c3)c3ccccc3n2)c1,,,"human male, plasma","oral, 200 mg, day 6, alone, adjusted geometric mean",AUC(0-last),9640 ng·h/mL
Cc1cc(C)c(CNC(=O)c2cc(Cl)c3c(c2C)O[C@@](C)([C@H]2CC[C@H](N(C)C)CC2)O3)c(=O)[nH]1,,,"human, NHL patients, plasma","oral, 200 mg/day, cycle 1 day 1, once daily",AUC(0-last),12400 ng·h/mL
C[C@H]1CN(C(=O)CC#N)[C@]12CCN(c1ncnc3[nH]ccc13)C2,,,"healthy adult humans, plasma","oral, 1.5 mg single, geometric mean",AUC(0-last),19.4 ng·h/mL
Cn1nc2c(=O)n(C3CC3)cnc2c1[C@](O)(c1cnc(C(F)(F)F)c(Cl)c1)C(F)(F)F,,,"infected humanized SCID mice, blood","30 mg/kg daily, 6 days",AUC(0-last),1340 µM·h
CC(F)(F)c1cc(F)ccc1-c1sc2cc(O)ccc2c1Oc1ccc(/C=C/C(=O)O)cc1,,,"human patients, serum","oral, 225 mg twice daily, cycle 1 day 28, regular meal, mean",AUC(0-last),8020 ng·h/mL

# A few entries again:
SMILES,tested on,test,test system,conditions,quantity,result
CN(C)C(=O)c1cc2cnc(Nc3ccc(N4CCNCC4)cn3)nc2n1C1CCCC1,,,"human, end-stage renal disease, plasma","oral, 400 mg, single dose, geometric mean",AUC(0-last),13500 ng·h/mL
